Published values of several laboratories.
“And” joins repeats or separate records; there may be more than shown. ± gives the spread as reported. Values after ≈ are worked out from the molar mass of the structure shown.

| SMILES | target or system | assay | test system | setting | how to read | quantity | result |
| --- | --- | --- | --- | --- | --- | --- | --- |
| Nc1nc(-c2ccccc2)nc2[nH]nc(Nc3ccc(C(F)(F)F)cc3)c12 | coxsackievirus B3 |  | 31-1-93, NMRI mice, CVB3 chronic myocarditis | oral, 100 mg/kg twice daily, day 21, dosed days 1 to 7, score scale 0 to 7 | direction not given | clinical score | 0.11 |
| CN[C@H](CC(C)C)C(=O)N[C@H]1C(=O)N[C@@H](CC(N)=O)C(=O)N[C@H]2C(=O)N[C@H]3C(=O)N[C@H](C(=O)N[C@H](C(=O)O)c4cc(O)cc(O)c4-c4cc3ccc4O)[C@H](O)c3ccc(c(Cl)c3)Oc3cc2cc(c3O[C@@H]2O[C@H](CO)[C@@H](O)[C@H](O)[C@H]2O[C@H]2C[C@](C)(N)[C@H](O)[C@H](C)O2)Oc2ccc(cc2Cl)[C@H]1O | Streptococcus pneumoniae |  | penicillin-resistant, 10 isolates | serum 50% |  | MIC50 | 0.5 µg/mL (≈ 0.345 µM) |
| COC(=O)[C@H](Cc1c[nH]c2ccccc12)NCc1cc2ccccc2nc1SC | Pseudomonas aeruginosa |  |  | 128 µg/mL, without pentamidine | reference: control | growth | 102% |
| CC(C)n1ncc2c(C(=O)NCC3(C)CNC3)cc(C3CC3)nc21 | Enterovirus D68 | viral replication | RD, recombinant wild-type US/MO/14-18947 | 1 µM | reference: untreated | plaque area | 0% |
| O=C(O)C[C@H](O)C[C@H](O)/C=C/c1c(C2CC2)nc2ccccc2c1-c1ccc(F)cc1 | COS-7 |  |  | 3 µM, 24 h, 0.1% DMSO, unit not given | reference: vehicle control | necrotic cells | 0.48 ± 0.15 |
| Cc1cc(OC(C)C)ccc1C(=O)C(C)(C)NC(=O)c1sccc1C | Rhynchosporium secalis | mycelial growth | PSA medium | 20 °C |  | EC50 | 0.91 µg/mL (≈ 2.53 µM) |
| COC(=O)[C@@H](NCc1cc2ccccc2nc1OCc1ccccc1)C(C)C | Pseudomonas aeruginosa |  |  | 8 µg/mL, without pentamidine | reference: control | growth | 95.5% |
| COc1cc2c(NC3CCN(C4CCCCC4)CC3)nc(N3CCCN(C(C)C)CC3)nc2cc1OCCCN1CCCCC1 | OCI-Ly1 |  |  | 0.5 µM, 120 h |  | viability | 129% |
| CC(=Nc1ccc(N=Cc2ccc[nH]2)cc1)N(C)C | Necator americanus |  | infected hamsters | oral, 12.5 mg/kg single dose, 49 days post infection |  | worm burden reduction | 44.9% |
| CN[C@H](CC(C)C)C(=O)N[C@H]1C(=O)N[C@@H](CC(N)=O)C(=O)N[C@H]2C(=O)N[C@H]3C(=O)N[C@H](C(=O)N[C@H](C(=O)O)c4cc(O)cc(O)c4-c4cc3ccc4O)[C@H](O)c3ccc(c(Cl)c3)Oc3cc2cc(c3O[C@@H]2O[C@H](CO)[C@@H](O)[C@H](O)[C@H]2O[C@H]2C[C@](C)(N)[C@H](O)[C@H](C)O2)Oc2ccc(cc2Cl)[C@H]1O | Staphylococcus epidermidis |  | 9397, female ICR mice, peritonitis, liver | dose not given |  | bacterial load | 4.84 log CFU and 5.86 log CFU and 5.31 log CFU and 5.19 log CFU and 5.54 log CFU and 5.08 log CFU |
| CC(=Nc1ccc(N=Cc2ccncc2)cc1)N(C)C | Necator americanus |  | infected hamsters | oral, 50 mg/kg single | reference: untreated | worm burden reduction | 96.7 ± 3.3% |
| N=C(N)c1ccc(OCc2ccc(Br)cc2COc2ccc(C(=N)N)cc2)cc1 | Escherichia coli |  | BW25113 | concentration not given, lowest-FICI combination, together with: novobiocin |  | MIC in combination | 12.5 µg/mL |
| Cn1cc(-c2ccc(-c3cncc(Cl)c3N3CCC4(CCNC4=O)CC3)cc2)cn1 | COLO 205 | gene expression, microarray, measured: PRDM8 mRNA |  | concentration not given, 2 h | reference: untreated cells | log2 fold change | 5.99 |
| Oc1ccccc1-c1n[nH]cc1-c1ccnc2ccccc12 | YPK1 (Candida albicans) | kinase binding, MIB/MS competition | Candida albicans lysate | 10 µM | reference: DMSO | log2 fold change | 0.26 |
| CC(=Nc1ccc(N=Cc2ccc3[nH]cnc3c2)cc1)N(C)C | Necator americanus |  | infected hamsters | oral, 50 mg/kg single | reference: untreated | worm burden reduction | 100% |
| CC(C)C[C@H](NC(=O)C[C@H](O)[C@H](CC(C)C)NC(=O)[C@H](Cc1c[nH]cn1)NC(=O)CNC(=O)[C@@H](NC(=O)[C@H](C)NC(=O)[C@H](Cc1c[nH]c2ccccc12)NC(=O)[C@H](CCC(N)=O)NC(=O)[C@@H](Cc1ccccc1)NC(=O)COCCOCCNC(=O)CCC(C(=O)O)N1CCN(CC(=O)O)CCN(CC(=O)O)CCN(CC(=O)O)CC1)C(C)C)C(N)=O (stereo partly shown) [lutetium-177 labelled] |  |  | female BALB/c nu/nu mice, bladder | intravenous, 100 pmol, 24 h, together with: PA 300 µg |  | tissue uptake | 0.3 ± 0.1 %ID/g |
